Assay results of several laboratories.
Every numbered part comes from another study and shows a few of its results, in no order.

Set 1 — technique: protein binding microarray; molecule type: double-stranded DNA, one strand shown; medium: in vitro; concentration: not given; reference: not given; reading: higher = stronger binding; endpoint: E-score
Target: Histone acetyltransferase KAT6A, both winged helices, GST fusion (KAT6A, Homo sapiens, UniProt Q92794, residues 1-181)
Notes: 8-mer, flanks averaged, mean of 2 arrays, mostly near background
Residues (chain): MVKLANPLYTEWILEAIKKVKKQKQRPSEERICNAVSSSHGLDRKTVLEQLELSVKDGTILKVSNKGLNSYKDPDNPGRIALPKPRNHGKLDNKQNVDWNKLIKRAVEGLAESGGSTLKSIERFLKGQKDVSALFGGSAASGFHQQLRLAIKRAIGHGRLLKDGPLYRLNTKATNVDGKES
GAATTCCC: -0.0474
ATGTGAAA: -0.0624
AATGCATC: -0.196
CCCTGACG: 0.0401
AGTCGGGG: 0.0507
ATTCATTG: -0.0757
AAACACTA: 0.0302
CTGGTCCA: -0.147
CAGGGCCA: -0.137
CAGTGCGA: -0.00541
CAAAAGGA: -0.0742
CCAATCCG: 0.0506
CAGAATGC: 0.0815
AACCGAGA: -0.0042
CGCAGTAA: 0.134
CGAGGGAA: -0.0727
CACGCGTC: 0.293
ACCGTCGT: 0.0899
ACAAGTAC: -0.132

Set 2 — technique: protein-binding microarray; molecule type: double-stranded DNA, one strand shown; medium: in vitro; concentration: not given; reading: higher = stronger binding; endpoint: E-score
Target: Protein C-ets-1 (ETS1, Homo sapiens, UniProt P14921, residues 1-441, K379A, full length assumed)
Notes: k-mer, scored over probes, only values ≥0.25
Residues (chain): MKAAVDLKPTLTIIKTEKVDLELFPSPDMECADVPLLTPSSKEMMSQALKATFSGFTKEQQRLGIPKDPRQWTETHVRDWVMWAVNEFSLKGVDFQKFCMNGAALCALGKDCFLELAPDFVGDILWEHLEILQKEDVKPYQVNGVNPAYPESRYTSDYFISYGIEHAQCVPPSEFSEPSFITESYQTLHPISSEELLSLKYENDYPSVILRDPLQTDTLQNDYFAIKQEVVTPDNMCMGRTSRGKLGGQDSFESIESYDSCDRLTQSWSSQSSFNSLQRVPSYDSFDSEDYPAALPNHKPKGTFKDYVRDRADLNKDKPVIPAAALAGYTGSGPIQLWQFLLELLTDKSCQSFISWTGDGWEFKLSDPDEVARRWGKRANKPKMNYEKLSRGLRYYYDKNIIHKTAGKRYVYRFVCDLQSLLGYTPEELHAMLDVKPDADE
CCGGAGTC: 0.27
CGCGTATC: 0.31
ATCCGGAA: 0.336
AAACACCG: 0.307
ATTACACA: 0.29
CCGGAAGC: 0.449
TACCGGGA: 0.427
GGCGGGGA: 0.352
CATTTCCG: 0.326
ACCGGCGA: 0.375
GGACGTCC: 0.283
CGGTATGA: 0.264
CCGGTCAA: 0.362
GGATGTCA: 0.281
AACCGGCT: 0.317
CGACCGCC: 0.296
CGGTTACA: 0.306
ACAGGATG: 0.262
ACCGGACG: 0.31
CCGTCGCC: 0.323

Set 3 — technique: universal PBM; molecule type: double-stranded DNA, one strand shown; medium: in vitro; concentration: 600 nM; reading: higher = stronger binding; endpoint: E-score
Target: Sal-like protein 4, full length isoform A (SALL4, Homo sapiens, UniProt Q9UJQ4, residues 1-1053)
Chain of UniProt Q9UJQ4 (whole entry, looked up): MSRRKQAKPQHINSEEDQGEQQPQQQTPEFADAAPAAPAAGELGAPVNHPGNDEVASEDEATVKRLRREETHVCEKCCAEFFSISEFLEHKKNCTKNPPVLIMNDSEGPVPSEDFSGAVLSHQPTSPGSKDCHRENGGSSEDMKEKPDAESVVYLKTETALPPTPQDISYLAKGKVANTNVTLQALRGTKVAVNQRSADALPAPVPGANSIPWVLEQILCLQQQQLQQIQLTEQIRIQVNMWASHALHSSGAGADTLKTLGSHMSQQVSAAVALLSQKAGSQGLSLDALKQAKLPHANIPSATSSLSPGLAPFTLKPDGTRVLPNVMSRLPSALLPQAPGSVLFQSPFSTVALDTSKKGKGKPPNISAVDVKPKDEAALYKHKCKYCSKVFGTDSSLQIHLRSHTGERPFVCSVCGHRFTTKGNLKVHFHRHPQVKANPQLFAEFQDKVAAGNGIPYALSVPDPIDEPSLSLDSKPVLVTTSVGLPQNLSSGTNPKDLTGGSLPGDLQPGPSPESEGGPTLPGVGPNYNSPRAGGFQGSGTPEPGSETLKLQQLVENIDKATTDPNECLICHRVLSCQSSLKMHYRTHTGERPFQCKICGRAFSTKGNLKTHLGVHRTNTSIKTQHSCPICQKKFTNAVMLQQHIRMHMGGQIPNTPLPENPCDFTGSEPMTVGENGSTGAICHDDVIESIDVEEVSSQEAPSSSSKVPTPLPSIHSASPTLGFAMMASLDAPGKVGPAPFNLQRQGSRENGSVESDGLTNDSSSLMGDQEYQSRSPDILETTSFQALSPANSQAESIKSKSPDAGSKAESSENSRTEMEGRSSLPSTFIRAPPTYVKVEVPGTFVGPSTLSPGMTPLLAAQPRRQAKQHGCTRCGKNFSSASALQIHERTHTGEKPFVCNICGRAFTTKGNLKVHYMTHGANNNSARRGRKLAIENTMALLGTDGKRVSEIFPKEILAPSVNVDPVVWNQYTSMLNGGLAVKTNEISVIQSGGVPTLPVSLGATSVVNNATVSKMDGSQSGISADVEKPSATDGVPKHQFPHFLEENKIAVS
Notes: 8-mer, flanks averaged, mean of replicates
AGATTATG: 0.222
CTGGCTTA: -0.107
ACTGGGCT: -0.248
ATGTTTCG: 0.0978
AAAAGCGG: -0.213
CCGCCCCG: -0.214
CCAACAAA: 0.137
AAGGTATA: 0.288
ATTATTCA: 0.342
GATTAATA: 0.397
CCACGAAA: -0.0775
CGCCTCCA: -0.0647
AACAGACA: 0.0579
GATGAAAC: 0.114
GACAGGGA: -0.215
ATTAGCCA: 0.112
AATACGAA: 0.319
CTCCGTAA: -0.0455
ACCAAGGT: -0.0931
GCGCGATA: -0.00766

Set 4 — technique: RNAcompete; molecule type: RNA; medium: in vitro; concentration: 20 nM; notes: 7-mer, probes averaged, single round; reference: mean of 7-mers; reading: higher = stronger binding; endpoint: 7-mer Z-score
Target: PABPC1L2, full length, GST fusion (mouse, UniProt A0ABA7IW68)
Construct (chain): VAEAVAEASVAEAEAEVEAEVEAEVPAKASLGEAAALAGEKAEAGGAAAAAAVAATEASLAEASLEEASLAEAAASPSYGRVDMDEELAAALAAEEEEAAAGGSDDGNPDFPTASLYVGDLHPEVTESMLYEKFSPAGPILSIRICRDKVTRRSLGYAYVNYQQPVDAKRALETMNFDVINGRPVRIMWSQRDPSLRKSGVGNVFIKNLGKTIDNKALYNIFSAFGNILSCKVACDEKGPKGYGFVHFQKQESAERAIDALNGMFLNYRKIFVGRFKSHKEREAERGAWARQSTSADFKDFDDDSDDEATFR
UAAAUGG: 0.717
ACCUUAA: 0.0551
UUAUGAC: -0.021
CCAGCGG: -0.17
GCCCUAG: -0.322
CAUCACU: -0.19
GCCUCCU: -0.318
UGCGUGG: 0.349
CCAGGUG: -0.079
AGGAAAA: 3.42
AAGGCCG: 0.0932
GACUGUC: -0.365
CCACAGG: -0.197
UUCGGCC: -0.336
UCUAUGU: -0.347
CCAUGGU: -0.171
GUGAAUG: -0.137
GGCAGGA: 0.584
AGGCCCG: -0.0573
GCUCUAG: -0.155
CAAUGCU: -0.211
AGAUUCU: -0.367
CAAAGCC: -0.157
UACAAGA: -0.0482
CACACUG: -0.213

Set 5 — technique: RNA Bind-n-Seq; molecule type: RNA; medium: in vitro; concentration: 365 nM; reference: no-protein control; reading: higher = stronger binding; endpoint: RBNS enrichment (R)
Target: RNA binding protein fox-1 homolog 2, RRM domain, GST-SBP tag (RBFOX2, Homo sapiens, UniProt O43251-10, residues 100-194)
Notes: natural RNA segment, single round, ends assumed
Shared flanks, not repeated: GGGAGUUCUACAGUCCGACGAUC … UGGAAUUCUCGGGUGCCAA
Residues (chain): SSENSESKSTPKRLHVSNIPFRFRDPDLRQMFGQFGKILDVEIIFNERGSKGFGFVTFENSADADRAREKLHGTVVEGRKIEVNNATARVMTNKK
UCAUUGUCACAGAAAAACCAACUAUGAUUUAUGGUUGUGUUUUCAGAAUUCAACAUUAAAGAUUAAUGUUUAUUUAAACGAACACAUUCCUGCAUUCAGGAUGUGAGGCC: 0.291
UUCUUUUCUCCUUUACCAGUCCUAUUUUUCAAUGGGAAGACUCAGGAGUCUGCCACUUGUCAAAGAAGGUGCUGAUCCUAAGAAUUUUUCAUUCUCAGAAUUCGGUGUGC: 0.248
GUAAGACAAAAACACCAGGAAGCAGGAUUCCGUGCCCAUCUCUGCAGUUUGGGUUCACAAAAGGGGGUGCCGUCAUCCCUGGGUGGAGGAGGGAGUGUUGGUUUUUUGUU: 0.445
CUUCCCCCUGAAUUGACCAGUAGCAGCUCCAGCCCCAUUUCACAAAAGUGAGUUUGGCCAGGAGGAAUGAGACGUCUCCUGAAAUAGGAACACCGGAACAUCAUGCUCAC: 0.275
AGAGUUUCAGAAGCCCCCACAUGGGGGCUCUAGGAAUGCCGGCAUGCUGGUCUUUCCGACCUGGUGCUCUUCUGCUGGGGGACUGAGGCUGGCCCUCAUUCGGGGUCGGG: 0.504
UUUGUUUUGGUAAGCUGUCCUCCAGGAUCAGCACUGCCUGUGAAUACUUUGAACUGUCUCCUGCUUACAGGGGUGUAAUGGUUUCCUUUGACUAGAAGUCUAUUUGUGUU: 0.438
CACAAAAGCUAAAGCAGUGGCUGGGGCUUUGUUUUUAAAUUUUGGGUUUUUUUUUUUGUUGUUGUUAAUGAGCAGAAAGAGAGACAUAAUGACAGCUGAUGUUAAACUUU: 1.15
UCUGAAGAGGAGGAGCAGGAGGAGCCUGCCCACUGGGCAUCGUGCCAUCCCCAUCAGGACCUCAGACCUGGGGUACCUGAACUCUGUCCCUCUGCUGCCGCCUCUGUCUG: 0.32

Set 6 — technique: RNA Bind-n-Seq; molecule type: RNA; medium: in vitro; concentration: 20 nM; notes: 6-mer, flanks averaged, single round; together with: 150 mM KCl; reference: input library; reading: higher = stronger binding; endpoint: 6-mer enrichment (R)
Target: TAR DNA-binding protein 43, full length, His tag (TARDBP, Homo sapiens, UniProt Q13148, residues 1-414)
GUAGGC: 1.38
GUUUGC: 0.854
UGGCCC: 0.799
AUGCCU: 0.656
UAGGCA: 0.826
CAAGUA: 0.658
UGAUGG: 1.43
GGCCUA: 0.976
CCGGUA: 0.769
UUUGGU: 0.779
UGAUAA: 0.686
AGGACC: 0.85
GACUGG: 1.62
UCCAAU: 0.595
CCUCCC: 0.641
GAUAAC: 0.679
CCGUAA: 0.622
CUCCGU: 0.607
CCACAG: 0.75
UCACGC: 0.654
CAGUUC: 0.581
UAGAUG: 0.85
CGCUCA: 0.609
ACUUCG: 0.583

For quick reference, copied from above (set 2):
ACCGGACG: 0.31
ATTACACA: 0.29
ATCCGGAA: 0.336
CCGTCGCC: 0.323
CGCGTATC: 0.31
TACCGGGA: 0.427
AAACACCG: 0.307
GGCGGGGA: 0.352
CCGGAGTC: 0.27
CGGTATGA: 0.264
CCGGTCAA: 0.362
CATTTCCG: 0.326
CCGGAAGC: 0.449
ACCGGCGA: 0.375
GGACGTCC: 0.283
GGATGTCA: 0.281
AACCGGCT: 0.317
